# Published values pooled from the literature.
# Compare with care: the assays were run in different laboratories.
# MET M1250T: Hepatocyte growth factor receptor (MET, Homo sapiens, UniProt P08581, M1250T)
# MET: Hepatocyte growth factor receptor (MET, Homo sapiens, UniProt P08581)
# MET Y1235D: Hepatocyte growth factor receptor (MET, Homo sapiens, UniProt P08581, Y1235D)
Structure (SMILES),target,assay,setting,how to read,remaining binding
C=CC(=O)N1CCCC(n2c(=O)c3ncccc3n(Cc3ccc(Oc4ccccc4)cc3)c2=O)C1 (stereo not drawn),MET M1250T,"cell-free assay, competition with immobilised ligand",1 µM,,92%
Nc1ncc2c(n1)-c1c([nH]c3ccc(C4=CCOCC4)cc13)CCC2,MET,"binding, competition with immobilised ligand",1 µM,,97%
CNC(=O)C1CCN(c2cc(C)c(F)cc2NC(=O)c2ccc(-c3cc(O)ccc3C)c(C)c2)CC1,MET M1250T,"binding, competition with immobilised ligand",1 µM,,100%
Cc1cnc2nc1Nc1cccc(c1)COC/C=C/COCc1cc(ccc1OCCN1CCOCC1)N2,MET,binding,0.1 µM,,72%
C=CC(=O)N1CCc2ccc(-n3c(=O)ccc4cnc5ccc(-c6cnn(C)c6)cc5c43)cc21,MET,KINOMEscan,1 µM,relative to: DMSO control,100%
Cc1ccc(-c2c(/C=C(\C#N)C(=O)NC(C)C)n(CCCO)c3ncnc(N)c23)cc1,MET Y1235D,"cell-free assay, competition with immobilised ligand",1 µM,,88%
CNC1C[S+]2CC[S+]3CC[S+](C1)[Ru-4]321([N]=C=S)[n]2c3ccc(OC)cc3c3c4c(c5cc(F)c[n+]1c5c32)C(=O)NC4=O (stereo not drawn),MET Y1235D,KinomeScan,0.1 µM,relative to: untreated,100%
COc1cc(Nc2nccc(-c3cnn4nc(OC)ccc34)n2)cc(C(F)(F)F)c1,MET Y1235D,binding,1 µM,,100%
CCN1CCN(Cc2ccc(C(=O)Nc3ccc(C)c(NCc4cnc5[nH]ccc5c4OC)c3)cc2C(F)(F)F)CC1,MET M1250T,"binding, competition with immobilised ligand",1 µM,,98%
COc1ccc(NC(=O)Nc2ccc3c(c2)C(=O)N(C(C)CO)CC(C)C(CN(C)Cc2ccc4c(c2)OCO4)O3)cc1 (stereo not drawn),MET,"binding, competition with immobilised ligand",10 µM,,100%
COc1c(Cl)cccc1Nc1c(-c2ccncc2C#C[C@@]2(C)CCCN2C(=O)/C=C/CN(C)C)[nH]c2c1C(=O)NCC2,MET M1250T,"cell-free assay, competition with immobilised ligand",3 µM,,82%
CC(C)=CC1OC(C)(C)C2C=C3C(=O)C(Cl)=CC(O)C3C3C(O)C4OC4C(=O)C132 (stereo not drawn),MET M1250T,"cell-free assay, competition with immobilised ligand",10 µM,,92%

# For quick reference, copied from above:
Structure (SMILES),target,assay,setting,how to read,remaining binding
COc1cc(Nc2nccc(-c3cnn4nc(OC)ccc34)n2)cc(C(F)(F)F)c1,MET Y1235D,binding,1 µM,,100%
